Experimental data gathered from unrelated publications.
A part holds a random share of what one study measured. Substitutions count along the parent as printed.
Chain of UniProt P08588 (whole entry, looked up): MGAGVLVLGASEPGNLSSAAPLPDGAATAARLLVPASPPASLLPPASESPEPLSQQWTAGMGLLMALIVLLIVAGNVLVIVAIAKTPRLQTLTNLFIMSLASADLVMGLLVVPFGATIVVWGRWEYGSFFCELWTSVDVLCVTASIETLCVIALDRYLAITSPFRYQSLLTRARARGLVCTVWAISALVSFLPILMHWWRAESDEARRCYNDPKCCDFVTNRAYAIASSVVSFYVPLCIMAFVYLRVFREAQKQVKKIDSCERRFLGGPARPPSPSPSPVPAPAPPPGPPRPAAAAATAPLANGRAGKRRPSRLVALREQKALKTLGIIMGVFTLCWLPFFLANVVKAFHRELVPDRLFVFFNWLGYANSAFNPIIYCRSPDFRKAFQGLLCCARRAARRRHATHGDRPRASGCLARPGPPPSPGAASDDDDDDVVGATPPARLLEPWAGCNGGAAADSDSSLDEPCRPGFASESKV
Chain of UniProt Q9UQM7 (whole entry, looked up): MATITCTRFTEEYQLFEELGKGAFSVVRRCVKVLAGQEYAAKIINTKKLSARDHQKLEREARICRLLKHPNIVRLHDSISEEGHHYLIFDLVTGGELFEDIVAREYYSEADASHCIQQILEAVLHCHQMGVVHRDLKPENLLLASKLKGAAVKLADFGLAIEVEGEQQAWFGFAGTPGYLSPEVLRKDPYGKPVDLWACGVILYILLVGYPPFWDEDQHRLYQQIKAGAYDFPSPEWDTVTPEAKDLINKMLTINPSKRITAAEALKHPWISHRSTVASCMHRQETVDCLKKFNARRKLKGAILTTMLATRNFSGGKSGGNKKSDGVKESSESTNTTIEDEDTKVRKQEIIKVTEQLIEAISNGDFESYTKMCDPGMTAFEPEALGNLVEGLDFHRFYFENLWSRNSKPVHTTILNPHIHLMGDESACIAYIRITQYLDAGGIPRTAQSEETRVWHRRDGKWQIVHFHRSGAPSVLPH

Series 1 — target: tungstate, free oxyanion; method: microfluidic competitive inhibition; medium: in vitro, cell-free expressed; concentration: not given; direction: lower = stronger binding
Notes: derived from inhibition constants, unchanged parent 2230 nM
Starting sequence: PafA, mature enzyme, eGFP fusion (Elizabethkingia meningoseptica, UniProt Q9KJX5); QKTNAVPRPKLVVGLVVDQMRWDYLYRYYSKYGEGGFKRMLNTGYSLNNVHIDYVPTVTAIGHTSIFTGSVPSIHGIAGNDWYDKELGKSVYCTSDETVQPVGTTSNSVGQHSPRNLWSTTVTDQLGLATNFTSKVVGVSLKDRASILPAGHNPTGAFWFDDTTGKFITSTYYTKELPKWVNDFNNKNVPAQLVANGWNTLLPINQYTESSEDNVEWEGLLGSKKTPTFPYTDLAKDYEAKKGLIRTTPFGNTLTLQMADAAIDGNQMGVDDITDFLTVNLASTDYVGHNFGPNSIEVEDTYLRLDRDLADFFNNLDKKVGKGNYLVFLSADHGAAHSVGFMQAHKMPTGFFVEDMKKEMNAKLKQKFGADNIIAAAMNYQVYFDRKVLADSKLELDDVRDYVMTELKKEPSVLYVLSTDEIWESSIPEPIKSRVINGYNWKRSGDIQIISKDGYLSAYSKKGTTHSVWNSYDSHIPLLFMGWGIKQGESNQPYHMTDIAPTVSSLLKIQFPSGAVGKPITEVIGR
Substitution | oxyanion analog dissociation constant [µM]
M404V | 2.32
F368V | 3.5
T226G | 2.31
L25V | 2.66
G525V | 1.98
G334A | 2.35
A282G | 12.3
G251A | 1.79

Series 2 — effect on: binding; method: phage display NGS; molecule type: peptide; notes: panning round 2; baseline: input library
Target: UDP-N-acetylglucosamine--peptide N-acetylglucosaminyltransferase 110 kDa subunit (OGT, Homo sapiens, UniProt O15294)
Chain of UniProt O15294 (whole entry, looked up): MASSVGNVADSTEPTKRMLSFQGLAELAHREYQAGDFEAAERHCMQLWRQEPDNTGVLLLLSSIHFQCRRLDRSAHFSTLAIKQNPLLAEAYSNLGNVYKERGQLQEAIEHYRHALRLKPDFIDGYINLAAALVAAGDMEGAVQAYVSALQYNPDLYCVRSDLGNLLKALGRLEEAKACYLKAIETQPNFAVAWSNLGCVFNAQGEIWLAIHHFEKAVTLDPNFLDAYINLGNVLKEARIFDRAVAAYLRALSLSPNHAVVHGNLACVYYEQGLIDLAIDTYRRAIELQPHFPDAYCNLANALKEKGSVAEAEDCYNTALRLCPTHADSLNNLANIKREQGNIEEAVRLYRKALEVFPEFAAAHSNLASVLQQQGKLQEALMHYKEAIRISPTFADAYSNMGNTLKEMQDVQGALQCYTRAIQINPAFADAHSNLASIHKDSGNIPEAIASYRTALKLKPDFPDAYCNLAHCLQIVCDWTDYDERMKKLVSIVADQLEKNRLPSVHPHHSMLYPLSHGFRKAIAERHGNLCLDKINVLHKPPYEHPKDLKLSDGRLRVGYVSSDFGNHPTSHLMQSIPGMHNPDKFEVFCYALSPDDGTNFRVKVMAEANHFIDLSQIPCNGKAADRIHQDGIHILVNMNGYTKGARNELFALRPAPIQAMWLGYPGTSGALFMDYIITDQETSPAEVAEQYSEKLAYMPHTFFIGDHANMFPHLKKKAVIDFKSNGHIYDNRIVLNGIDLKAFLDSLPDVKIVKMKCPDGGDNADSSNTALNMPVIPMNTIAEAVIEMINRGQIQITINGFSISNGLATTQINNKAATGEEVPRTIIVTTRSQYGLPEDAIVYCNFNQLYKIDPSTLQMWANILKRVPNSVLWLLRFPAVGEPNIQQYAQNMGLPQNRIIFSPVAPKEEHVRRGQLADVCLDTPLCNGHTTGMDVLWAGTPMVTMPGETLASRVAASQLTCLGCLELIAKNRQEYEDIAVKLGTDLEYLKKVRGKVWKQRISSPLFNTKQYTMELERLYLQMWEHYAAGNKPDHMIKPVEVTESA
Sequence | minimum log2 enrichment ratio
DHAHRHWYAMRNHHT | 2.59
NIWMPVYQIRYSYNT | 4.13
LTPFHTHHGHVTRG | 2.06
FSFKPVYEIVLEQK | 3.88
GMSPWHFHSHQAIMV | 2.54
DFLYMPKYQMVFDFT | 6.57
HWRPHHHMGEEINV | 2.37
NTTAPQLVYPPMYQI | 3.13

Further values, each from its own experiment
SMILES | target | test | setting | measurement | value
c1cc2c(c(N3CCNCC3)c1)OCCO2 | ADRB1 (Homo sapiens, UniProt P08588) | agonist | – | EC50 | 3.55 µM
C[C@H](O)c1ccccc1 | CAMK2A (Homo sapiens, UniProt Q9UQM7) | enzyme activity, inhibitor | 10 µM | inhibition | 0%
